Assay results of several laboratories.
Protocols differ between the studies behind these lines. Several values in a cell are separate wells, animals, samples, runs or records. Numbers after ± are the reported error.

Structure (SMILES) | cell line | assay | setting | scale | endpoint | value
CC(=O)NC1CCSC1=O (stereo not shown) | human iPSC-derived cardiomyocytes | MyBP-C/MYH ratio, plate-normalised SD score | concentration not given, primary screen | direction not given | activity score | 16
Oc1ccc(C(c2ccc(O)cc2)(C(F)(F)F)C(F)(F)F)cc1 | HepG2 spheroids | Hoechst flow cytometry | 10 µM, 24 h | – | G2 phase cells | 21.7 ± 5.2%
C/C=C(/C)C(=O)O[C@H]1C(C)=C2[C@H]([C@@H]1OC(=O)CCCCCCC)[C@@](C)(OC(C)=O)C[C@H](OC(=O)CCC)[C@@]1(O)[C@H]2OC(=O)[C@@]1(C)O | HEK293T | RNA-seq, refers to: DNAJB1 mRNA | 10 µM, 6 h | reference: vehicle | log2 fold change | -1.25
COc1ccc2c(c1)[nH]c1c(C)nccc12 | DU-145 | bisulfite pyrosequencing, refers to: RASSF1A promoter CpG site 21 | concentration not given | reference: vehicle | methylation reduction | 1.74%
COc1cc(CCC[P+](c2ccccc2)(c2ccccc2)c2ccccc2)c(OC)c2c1OCO2.[I-] | U-251 | SRB | – | – | LC50 | > -4 log M
COc1c(C)c2c(c(O)c1C/C=C(\C)CCC(=O)O)C(=O)OC2 | PBMC | cell proliferation | – | – | IC50 | > 10 µM
C[C@H]1CCC/C=C/[C@@H]2C[C@H](O)C[C@H]2[C@H](O)/C=C/C(=O)O1 | BT-16 | cell viability, MTT | 10 µM, 72 h | – | inhibition | 94.1%
COCCCn1c(N)c(C(=O)NC2CCCC2)c2nc3ccccc3nc21 | HBL-1 | – | 1 µM, 120 h | – | viability | 103%
CC[C@H](C)[C@H](NC(=O)[C@H](CCCCN)NC(=O)[C@H](CCCCN)NC(=O)[C@@H](NC(=O)[C@@H](NC(=O)[C@H](CC(=O)O)NC(=O)[C@H](Cc1ccccc1)NC(=O)[C@H](CC(C)C)NC(=O)CN)[C@@H](C)CC)[C@@H](C)CC)C(=O)N[C@@H](C)C(=O)N[C@@H](CCC(=O)O)C(=O)N[C@@H](CO)C(=O)N[C@@H](Cc1ccccc1)C(=O)N[C@@H](CS)C(N)=O | human red blood cells | – | pH 5.5 | reference: Triton X-100 | EC50 | 95 µM
COc1c(CCC[P+](c2ccccc2)(c2ccccc2)c2ccccc2)cc2c(c1OC)OCO2.[I-] | K562 | SRB | – | – | LC50 | > -4 log M
Cc1cc(NS(=O)(=O)c2ccc(NC(=O)/C(C#N)=C/c3ccc(N4CCCCC4)cc3)cc2)no1 | HCT-116 | ELISA, refers to: caspase-3 | IC50, 48 h | reference: untreated | protein level | 4.13 fold
Nc1ncc(-c2nc(N3CCOCC3)nc(N3CCOCC3)n2)c(C(F)F)n1 | AU565 | – | 72 h | – | GI50 | 0.047 µM
CC(C)N1CCC(NC2CCN(c3cccc(-c4cc5cc(F)ccc5[nH]4)c3)CC2)CC1 | HCT-15 | – | – | – | CC50 | 5.06 µM
Cc1c(O)c(O)cc2c1CC=C1[C@@]2(C)CC[C@@]2(C)[C@@H]3C[C@](C)(C(=O)O)CC[C@]3(C)CC[C@]12C | human iPSC-derived cardiomyocytes | MyBP-C/MYH ratio, plate-normalised SD score | concentration not given, primary screen | direction not given | activity score | 8.4
CCN(CC)c1ccc(C=NNC(=O)CSc2nc3ccccc3c(=O)n2Cc2ccc(S(N)(=O)=O)cc2)c(O)c1 | U-251 | NCI five-dose screen | – | – | CC50 | > 100 µM
CCCCCCCCCCCCCC(=O)O[C@@H]1[C@@H](C)[C@@]2(O)[C@@H](C=C(CO)C[C@]3(O)C(=O)C(C)=C[C@@H]23)[C@@H]2C(C)(C)[C@]12OC(C)=O | K562 | flow cytometry | concentration not given | reference: cells | sub-G0 cells | 7.01% and 8.32% and 10.8%

Excerpt of the above:
Structure (SMILES) | cell line | assay | setting | scale | endpoint | value
COCCCn1c(N)c(C(=O)NC2CCCC2)c2nc3ccccc3nc21 | HBL-1 | – | 1 µM, 120 h | – | viability | 103%
CC(=O)NC1CCSC1=O (stereo not shown) | human iPSC-derived cardiomyocytes | MyBP-C/MYH ratio, plate-normalised SD score | concentration not given, primary screen | direction not given | activity score | 16
CCN(CC)c1ccc(C=NNC(=O)CSc2nc3ccccc3c(=O)n2Cc2ccc(S(N)(=O)=O)cc2)c(O)c1 | U-251 | NCI five-dose screen | – | – | CC50 | > 100 µM
